# Measurements collected from several papers.
# Protocols differ between the studies behind these lines. “And” joins repeats or separate records; there may be more than shown. ± gives the spread as reported.
# Sequence of UniProt Q5T4S7 (whole entry, looked up): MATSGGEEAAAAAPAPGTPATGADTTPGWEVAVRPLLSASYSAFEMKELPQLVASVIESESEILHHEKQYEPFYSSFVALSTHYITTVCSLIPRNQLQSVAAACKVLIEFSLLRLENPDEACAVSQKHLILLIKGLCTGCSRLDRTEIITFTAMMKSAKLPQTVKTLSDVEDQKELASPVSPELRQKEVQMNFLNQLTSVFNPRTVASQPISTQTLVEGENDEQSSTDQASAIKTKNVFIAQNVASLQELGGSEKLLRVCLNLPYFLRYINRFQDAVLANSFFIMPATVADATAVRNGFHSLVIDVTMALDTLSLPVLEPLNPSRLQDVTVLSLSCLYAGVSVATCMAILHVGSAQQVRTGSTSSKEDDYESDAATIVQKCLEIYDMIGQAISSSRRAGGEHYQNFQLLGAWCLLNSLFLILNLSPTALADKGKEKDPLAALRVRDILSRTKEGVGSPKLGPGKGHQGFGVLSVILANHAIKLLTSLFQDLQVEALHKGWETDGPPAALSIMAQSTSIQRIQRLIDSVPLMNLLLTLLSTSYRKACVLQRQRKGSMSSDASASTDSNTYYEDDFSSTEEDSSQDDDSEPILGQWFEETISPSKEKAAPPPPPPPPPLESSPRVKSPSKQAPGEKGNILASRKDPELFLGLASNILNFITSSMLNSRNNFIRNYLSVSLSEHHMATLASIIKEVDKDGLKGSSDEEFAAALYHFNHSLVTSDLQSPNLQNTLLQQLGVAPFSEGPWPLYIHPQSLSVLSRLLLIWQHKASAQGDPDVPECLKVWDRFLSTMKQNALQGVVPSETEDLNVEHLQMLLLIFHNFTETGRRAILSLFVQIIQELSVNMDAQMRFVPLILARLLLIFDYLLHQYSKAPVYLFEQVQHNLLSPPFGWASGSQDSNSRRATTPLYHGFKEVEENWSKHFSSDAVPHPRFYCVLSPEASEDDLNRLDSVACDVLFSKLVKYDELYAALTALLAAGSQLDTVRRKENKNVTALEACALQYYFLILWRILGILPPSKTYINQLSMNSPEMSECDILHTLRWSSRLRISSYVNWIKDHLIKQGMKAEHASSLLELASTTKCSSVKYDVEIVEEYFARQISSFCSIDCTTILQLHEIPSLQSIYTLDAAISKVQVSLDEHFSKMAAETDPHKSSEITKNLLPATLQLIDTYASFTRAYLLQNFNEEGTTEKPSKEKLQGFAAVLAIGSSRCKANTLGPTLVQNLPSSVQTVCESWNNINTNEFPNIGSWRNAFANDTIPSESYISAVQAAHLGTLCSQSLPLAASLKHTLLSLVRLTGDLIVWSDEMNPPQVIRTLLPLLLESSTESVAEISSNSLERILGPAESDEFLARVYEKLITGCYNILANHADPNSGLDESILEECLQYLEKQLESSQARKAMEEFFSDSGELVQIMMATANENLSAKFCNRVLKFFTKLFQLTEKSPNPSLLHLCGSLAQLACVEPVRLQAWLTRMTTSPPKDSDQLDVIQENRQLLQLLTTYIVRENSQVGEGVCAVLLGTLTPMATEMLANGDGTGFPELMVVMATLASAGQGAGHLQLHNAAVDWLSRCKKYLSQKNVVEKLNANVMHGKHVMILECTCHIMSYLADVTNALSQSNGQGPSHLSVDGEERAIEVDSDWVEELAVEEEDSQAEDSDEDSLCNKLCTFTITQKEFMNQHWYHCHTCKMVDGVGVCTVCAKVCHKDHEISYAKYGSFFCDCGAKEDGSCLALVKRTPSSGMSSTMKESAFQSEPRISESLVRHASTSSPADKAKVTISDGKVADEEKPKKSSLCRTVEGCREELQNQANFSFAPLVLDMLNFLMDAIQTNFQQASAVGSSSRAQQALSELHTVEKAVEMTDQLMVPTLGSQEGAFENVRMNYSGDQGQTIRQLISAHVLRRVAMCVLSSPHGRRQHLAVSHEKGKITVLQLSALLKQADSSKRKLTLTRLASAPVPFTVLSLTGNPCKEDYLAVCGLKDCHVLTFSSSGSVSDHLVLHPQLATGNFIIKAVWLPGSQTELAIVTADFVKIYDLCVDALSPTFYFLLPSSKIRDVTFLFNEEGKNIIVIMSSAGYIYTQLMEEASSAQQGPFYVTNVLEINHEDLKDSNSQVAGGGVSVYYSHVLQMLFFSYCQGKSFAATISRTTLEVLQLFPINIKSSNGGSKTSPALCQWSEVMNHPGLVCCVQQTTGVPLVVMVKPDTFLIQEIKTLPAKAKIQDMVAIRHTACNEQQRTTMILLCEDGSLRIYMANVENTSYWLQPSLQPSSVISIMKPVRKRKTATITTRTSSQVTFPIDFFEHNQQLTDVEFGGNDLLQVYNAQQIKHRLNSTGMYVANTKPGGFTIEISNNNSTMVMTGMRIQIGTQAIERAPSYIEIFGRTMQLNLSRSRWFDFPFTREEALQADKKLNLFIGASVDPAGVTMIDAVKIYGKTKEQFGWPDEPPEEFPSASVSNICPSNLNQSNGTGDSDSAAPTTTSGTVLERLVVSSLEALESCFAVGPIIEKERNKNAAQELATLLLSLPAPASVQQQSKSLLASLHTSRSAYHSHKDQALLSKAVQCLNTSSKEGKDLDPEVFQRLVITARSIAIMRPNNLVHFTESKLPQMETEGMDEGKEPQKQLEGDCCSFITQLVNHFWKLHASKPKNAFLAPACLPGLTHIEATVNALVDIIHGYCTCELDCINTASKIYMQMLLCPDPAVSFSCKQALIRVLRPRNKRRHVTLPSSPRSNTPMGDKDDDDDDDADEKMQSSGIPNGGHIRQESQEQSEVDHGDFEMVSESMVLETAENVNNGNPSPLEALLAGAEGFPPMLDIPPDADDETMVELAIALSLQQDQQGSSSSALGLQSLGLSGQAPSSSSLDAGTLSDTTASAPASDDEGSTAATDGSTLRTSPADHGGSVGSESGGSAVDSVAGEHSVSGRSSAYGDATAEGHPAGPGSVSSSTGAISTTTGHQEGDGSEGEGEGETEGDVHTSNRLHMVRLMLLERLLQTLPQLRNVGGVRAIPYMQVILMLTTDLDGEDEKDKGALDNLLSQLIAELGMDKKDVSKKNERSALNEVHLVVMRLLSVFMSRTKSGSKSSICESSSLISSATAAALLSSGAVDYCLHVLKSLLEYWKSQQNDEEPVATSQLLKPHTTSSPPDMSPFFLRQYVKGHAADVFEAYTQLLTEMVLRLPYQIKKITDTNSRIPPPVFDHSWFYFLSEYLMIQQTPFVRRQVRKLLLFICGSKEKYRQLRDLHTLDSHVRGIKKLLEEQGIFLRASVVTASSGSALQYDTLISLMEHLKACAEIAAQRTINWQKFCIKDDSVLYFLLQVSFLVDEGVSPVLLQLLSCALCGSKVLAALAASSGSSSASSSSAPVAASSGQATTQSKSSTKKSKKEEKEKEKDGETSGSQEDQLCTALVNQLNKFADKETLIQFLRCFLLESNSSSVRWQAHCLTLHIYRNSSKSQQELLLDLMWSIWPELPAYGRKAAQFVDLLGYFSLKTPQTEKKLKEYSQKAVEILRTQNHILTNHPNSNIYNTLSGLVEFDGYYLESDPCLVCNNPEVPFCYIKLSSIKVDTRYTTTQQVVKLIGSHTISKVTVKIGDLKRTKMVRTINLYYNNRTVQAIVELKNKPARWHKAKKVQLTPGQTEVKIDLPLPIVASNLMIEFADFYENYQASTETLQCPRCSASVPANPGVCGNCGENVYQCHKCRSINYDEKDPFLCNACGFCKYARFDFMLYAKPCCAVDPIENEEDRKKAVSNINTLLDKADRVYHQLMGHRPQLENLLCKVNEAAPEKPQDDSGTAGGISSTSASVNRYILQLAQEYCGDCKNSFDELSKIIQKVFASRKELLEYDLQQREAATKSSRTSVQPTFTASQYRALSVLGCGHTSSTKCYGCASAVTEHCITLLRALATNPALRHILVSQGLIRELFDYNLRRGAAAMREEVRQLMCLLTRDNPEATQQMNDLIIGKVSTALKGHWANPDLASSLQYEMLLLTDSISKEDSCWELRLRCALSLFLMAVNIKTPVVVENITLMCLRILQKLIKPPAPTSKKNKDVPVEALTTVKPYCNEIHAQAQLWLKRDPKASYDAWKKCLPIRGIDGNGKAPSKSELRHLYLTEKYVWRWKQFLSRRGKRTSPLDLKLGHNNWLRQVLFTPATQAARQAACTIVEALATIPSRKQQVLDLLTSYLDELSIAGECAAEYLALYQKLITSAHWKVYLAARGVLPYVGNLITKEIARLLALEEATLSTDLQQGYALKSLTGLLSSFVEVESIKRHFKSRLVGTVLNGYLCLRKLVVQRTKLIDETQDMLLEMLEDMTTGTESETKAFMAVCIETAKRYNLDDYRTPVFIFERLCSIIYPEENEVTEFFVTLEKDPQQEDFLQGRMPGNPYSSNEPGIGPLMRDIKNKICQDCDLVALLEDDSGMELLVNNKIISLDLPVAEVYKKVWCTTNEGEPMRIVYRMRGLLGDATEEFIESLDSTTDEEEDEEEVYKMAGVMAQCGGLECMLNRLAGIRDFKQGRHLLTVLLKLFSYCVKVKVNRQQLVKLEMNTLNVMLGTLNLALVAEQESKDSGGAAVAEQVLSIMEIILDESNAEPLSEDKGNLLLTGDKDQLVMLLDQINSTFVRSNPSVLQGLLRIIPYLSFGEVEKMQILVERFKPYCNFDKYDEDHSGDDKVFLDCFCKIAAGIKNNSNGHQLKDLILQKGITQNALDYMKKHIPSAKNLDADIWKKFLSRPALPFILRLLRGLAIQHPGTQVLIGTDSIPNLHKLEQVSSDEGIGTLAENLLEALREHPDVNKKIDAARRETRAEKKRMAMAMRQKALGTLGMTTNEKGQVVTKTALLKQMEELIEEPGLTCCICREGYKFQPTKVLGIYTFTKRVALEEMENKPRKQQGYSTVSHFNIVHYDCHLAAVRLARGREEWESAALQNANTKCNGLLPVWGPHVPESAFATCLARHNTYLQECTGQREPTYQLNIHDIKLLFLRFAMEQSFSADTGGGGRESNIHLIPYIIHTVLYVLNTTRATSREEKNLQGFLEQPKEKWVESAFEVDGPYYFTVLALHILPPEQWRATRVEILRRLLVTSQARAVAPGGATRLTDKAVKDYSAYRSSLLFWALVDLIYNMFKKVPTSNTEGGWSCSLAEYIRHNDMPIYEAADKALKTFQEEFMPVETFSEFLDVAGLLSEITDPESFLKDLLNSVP
Compound,tested on,test,system,setting,how to read,endpoint,value
C[C@@H](O)[C@@H]1NC(=O)CNC(=O)[C@H](Cc2c[nH]cn2)NC(=O)[C@H](Cc2c[nH]c3ccccc23)NC(=O)[C@H](CC(N)=O)NC(=O)CNC(=O)C[C@@H](C(=O)N[C@@H](Cc2c[nH]c3ccccc23)C(=O)N[C@@H](Cc2ccccc2)C(=O)N[C@@H](Cc2ccccc2)C(=O)N[C@@H](CC(N)=O)C(=O)N[C@@H](Cc2ccc(O)cc2)C(=O)N[C@@H](Cc2ccc(O)cc2)C(=O)N[C@@H](Cc2c[nH]c3ccccc23)C(=O)O)NC(=O)[C@@H]2CCCN2C(=O)[C@H](CO)NC1=O,,,male CD-1 mouse,"intravenous, 3 mg/kg",,Vz,0.73 L/kg
CC(C)Nc1ccnc(Nc2cccc(-c3cccnc3)c2)n1,,refers to: ALT,"mouse, blood","intraperitoneal, 3 mg/kg",,blood chemistry,101 U/L
C[C@H]1CN(c2n[nH]c3nc(N[C@H]4CC[C@H](NS(=O)(=O)CCC(F)(F)F)CC4)ncc23)CCO1,"E3 ubiquitin-protein ligase UBR4 (UBR4, Homo sapiens, UniProt Q5T4S7)","inhibitor, Kinobeads competition profiling",,20 µM,relative to: vehicle,relative abundance,1.22
Cc1cc(OCCOCCC(F)(F)P(=O)(O)O)ccc1CCc1cnc2c(N)nc3cc(CCC(=O)O)ccc3c2c1,,refers to: nausea,adults with advanced solid tumours,"dose not given, all groups pooled, all grades",,patients with non-serious AE,13.3%
CCCCCCCCCCCCCCCC(=O)N[C@@H](CCC(=O)NCCCC[C@H](NC(=O)[C@H](CC(=O)O)NC(=O)[C@H](CO)NC(=O)[C@@H](NC(=O)[C@H](Cc1ccccc1)NC(=O)[C@@H](NC(=O)CNC(=O)[C@H](CCC(N)=O)NC(=O)[C@H](CO)NC(=O)[C@@H](N)Cc1c[nH]cn1)[C@@H](C)O)[C@@H](C)O)C(=O)N[C@@H](CO)C(=O)N[C@@H](CCC(=O)O)C(=O)N[C@@H](Cc1ccc(O)cc1)C(=O)N[C@@H](CC(C)C)C(=O)N[C@@H](CC(=O)O)C(=O)N[C@@H](CO)C(=O)N[C@@H](CCC(=O)O)C(=O)N[C@@H](CCCNC(=N)N)C(=O)N[C@@H](C)C(=O)N[C@@H](CCCNC(=N)N)C(=O)N[C@@H](CC(=O)O)C(=O)N[C@@H](Cc1ccccc1)C(=O)N[C@H](C(=O)N[C@@H](C)C(=O)N[C@@H](Cc1c[nH]c2ccccc12)C(=O)N[C@@H](CC(C)C)C(=O)N[C@@H](CCC(=O)O)C(=O)N[C@@H](C)C(=O)NCC(=O)NCC(=O)O)C(C)C)C(=O)O,,refers to: Flatulence,humans CrCl 20 to 30 mL/min,"subcutaneous, 100 µg single dose",,treatment-related adverse events,0%
O=C(c1ccc(F)c(F)c1Nc1ccc(I)cc1F)N1CC(O)([C@@H]2CCCCN2)C1,,,human patients,"oral, dose not given, dose escalation, tablet",,adverse events of special interest,33%
Cn1cncc1-c1c(F)cncc1NC(=O)c1c(N)nn2cc(F)cnc12,,,human patients,"oral, 130 mg once daily",,grade ≥3 platelet decrease incidence,0%
COc1cc2c(Oc3ccc4[nH]c(C)cc4c3F)ccnc2cc1OCC1(N)CC1,,,paediatric recurrent refractory sarcoma,10 mg,,grade 1 or 2 Triglyceride elevation,50%
CC(C)[C@@H]1NC(=O)CNC(=O)[C@H](CC(N)=O)NC(=O)[C@H](CCCNC(=N)N)NC(=O)[C@H](Cc2ccc(O)cc2)NC(=O)[C@H](C(C)C)NC(=O)[C@@H](NC(=O)[C@@H](NC(=O)[C@H](CC(N)=O)NC(=O)[C@H](Cc2c[nH]c3ccccc23)NC(=O)[C@H](C)NC(=O)[C@H](Cc2ccccc2)NC(=O)CN)C(C)C)CSSC[C@@H](C(=O)N[C@@H](Cc2cnc[nH]2)C(=O)N[C@@H](CCCNC(=N)N)C(=O)N[C@@H](CCCNC(=N)N)C(=O)N[C@@H](C)C(=O)N[C@@H](CC(N)=O)C(N)=O)NC(=O)[C@H](C(C)C)NC(=O)[C@H](CCCNC(=N)N)NC1=O,,HPLC,mouse liver homogenate 50 mg/mL,8.00 h,,peptide remaining,0% and 1.74%
O=S(=O)(Nc1ccccc1)c1ccc(NC(=S)Nc2ccccc2)cc1,,,"male mice, thymus","oral, 20 mg/kg daily 14 days",relative to: body weight,relative organ weight,0.21%
CCC[C@@](N)(CO)CCc1ccc(OCCCCCC(C)C)cc1,,,dog,"oral, 10 mg/kg",,half-life,31 h
CC(=O)N1CCC(Nc2cc(C(=O)NC[C@H](O)CN3CCc4ccccc4C3)ncn2)CC1,,,relapsed or refractory MDS CMML AML,"oral, 300 mg",,deaths,82%
c1ccc2c(c1)ccc1c3ccccc3ccc21,,,pooled human liver microsomes,"0.25 µM, pH 7.4",,metabolism rate,9.63 pmol/min/mg
CC(=O)c1c(C)c2cnc(Nc3ccc(C4CCN(CCS(C)(=O)=O)CC4)cn3)nc2n(C2CCCC2)c1=O,,,"human, plasma","oral, 75 mg twice daily, day 1, single dose, together with: letrozole",,AUC(0-t),595 ng·h/mL
CC[C@H](C)[C@H](NC(=O)[C@H](Cc1ccccc1)NC(=O)[C@H](CCC(=O)O)NC(=O)[C@H](CCCNC(=N)N)NC(=O)[C@H](C)NC(=O)[C@H](C)NC(=O)[C@H](CCC(N)=O)NC(=O)[C@H](CCC(=O)O)NC(=O)[C@H](CCC(=O)O)NC(=O)[C@H](CC(C)C)NC(=O)[C@H](Cc1ccc(O)cc1)NC(=O)[C@H](CO)NC(=O)[C@H](CO)NC(=O)[C@@H](NC(=O)[C@H](CC(=O)O)NC(=O)[C@H](CO)NC(=O)[C@@H](NC(=O)[C@H](Cc1ccccc1)NC(=O)[C@@H](NC(=O)CNC(=O)[C@H](CCC(=O)O)NC(=O)[C@H](C)NC(=O)CCc1cnc[nH]1)[C@@H](C)O)[C@@H](C)O)C(C)C)C(=O)N[C@@H](C)C(=O)N[C@@H](Cc1c[nH]c2ccccc12)C(=O)N[C@@H](CC(C)C)C(=O)N[C@H](C(=O)N[C@@H](CCCNC(=N)N)C(=O)NCC(=O)N[C@@H](CCCNC(=N)N)C(=O)N[C@@H](CCCCNC(=O)COCCOCCNC(=O)COCCOCCNC(=O)CC[C@H](NC(=O)CCCCCCCCCCCCCCCCC(=O)O)C(=O)O)C(=O)NCC(=O)NCC(=O)N[C@@H](CO)C(=O)N[C@@H](CCSC)C(=O)N[C@H](C(=O)N[C@@H](CCCCNc1c(NCCCCCN(O)C(=O)CCC(=O)NCCCCCN(O)C(=O)CCC(=O)NCCCCCN(O)C(C)=O)c(=O)c1=O)C(=O)O)C(C)C)C(C)C [zirconium-89 labelled],,ex vivo gamma counting,"male Sprague-Dawley rats, intestine","intravenous, 5 MBq (1 nmol), 72 h",,tissue uptake,0.062 %ID/g and 0.068 %ID/g and 0.082 %ID/g
COc1ccc(CC(=O)NC2CCN(Cc3ccc(-c4ccccc4OC)cc3)C2)cc1 (stereo not drawn),Vero-E6,CellTiter-Glo ATP,,"72 h, retest 8-point duplicates","relative to: DMSO 0%, hyamine -100%, more negative, more toxic",maximum response,-7.42%
C[C@@H](NC(=O)N1C(=O)[C@H](Cc2ccnc(N)c2)[C@H]1C(=O)O)C1CCCCC1,,,healthy adult Chinese volunteers,"continuous intravenous infusion, 1.5 mg/kg/h, 5-day infusion, CTCAE 5.0 grading",,incidence of AEs excluding prolonged aPTT,25%
C[C@]1(O)C[C@@](N)(c2ccc(-c3nc4n(c3-c3ccccc3)COc3ccncc3-4)cc2)C1,,,"human, advanced or metastatic solid tumours","once daily, dose escalation total, any grade",,patients with Dyspnea TEAE,11.1%
c1csc(CNc2cc[nH]n2)c1,,micronucleus,"CD-1 mouse Hsd:ICR(CD-1), female, bone marrow","oral, 500 mg/kg/day, 3 days",,micronucleated PCE per 1000 PCE,0.7
CO[C@H]1C[C@@H]2CC[C@@H](C)[C@@](O)(O2)C(=O)C(=O)N2CCCC[C@H]2C(=O)O[C@H]([C@H](C)C[C@@H]2CC[C@@H](OC(=O)NCCOCCOCCOCCOCCOCCOCCOCCOCCC(=O)N3CCc4cc(Cn5nc(-c6ccc7oc(N)nc7c6)c6c(N)ncnc65)ccc4C3)[C@H](OC)C2)C[C@@H](O)[C@H](C)/C=C(\C)[C@@H](O)[C@@H](OC)C(=O)[C@H](C)C[C@H](C)/C=C/C=C/C=C/1C,,,patients with advanced solid tumours,"intravenous, 1.6 mg/3 mg weekly, any grade",,incidence of Anemia TEAE,60%
CCCC(CCC)NC(=O)c1ccc2c(c1)OCO2,,,"Swiss albino CD-1 mice, male, bone marrow","intraperitoneal, 700 mg/kg, 24 h",,micronucleated PCEs,0.1%
C[C@]1(CO)Cc2ncn(-c3ccc(C#N)c(Cl)c3)c2C(=O)O1,,investigator-assessed,"human, Chinese",20 mg single dose,,subjects with drug-related TEAEs,16.7%
COc1ccccc1C(=O)NC1CCCN(Cc2cccc(-c3ccc(C)c(Cl)c3)c2)C1 (stereo not drawn),Vero-E6,CellTiter-Glo ATP,,"72 h, first round 5-point","relative to: DMSO 0%, hyamine -100%, more negative, more toxic",maximum response,-12.2%
N=C(N)NCCC[C@@H](NC(=O)[C@@H](N)Cc1ccccc1)C(=O)N[C@@H](Cc1ccccc1)C(=O)N[C@@H](CCCCN)C(N)=O,,LC-MS,human,"15 mg, 23.83 h",,median amount excreted in urine,353000 ng
CNC(=O)c1cc(Oc2ccc(NC(=O)Nc3cc(C(C)(C)C)nn3-c3ccc4ncccc4c3)c(F)c2)ccn1,,"viral cardiomyopathy, NCI CTC v3.0",human patients,"oral, 150 mg twice daily, tablet, dose at onset",,related SAE,3%
CN1CC[C@@H](c2c(O)cc(O)c3c(=O)cc(-c4ccc(C(F)(F)F)cc4Cl)oc23)[C@@H]1CO,,refers to: Diarrhea,relapsed or refractory haematological malignancies,"oral, dose not given, all arms",,patients with adverse event,30%
COc1ccc(C[C@@H]2NC(=O)[C@H]([C@@H](C)O)NC(=O)[C@@H]3[C@@H]4CCN3C(=O)[C@@H]3Cc5cn(c6ccc(F)cc56)CCCCCCN(Cc5ccc(cc5)CCNC(=O)[C@]5(C)CCCN5C2=O)C(=O)CCC(=O)N[C@@H](C)C(=O)N[C@H](CNC(=O)CCCCC[N+](C)(C)C)C(=O)N[C@@H](Cc2cccc(c2)CNC(=O)CO4)C(=O)N3)cc1,,refers to: Pyrexia,humans,"concentration not given, Study-001",,participants with adverse event,2%
COc1ccc(-c2c(-c3ccc(C#N)c(F)c3)nc(N3CCC(N)CC3)n(C)c2=O)cc1F,,refers to: Pruritus,neuroendocrine neoplasm patients,"oral, 60 mg, grade 3 to 4, dose expansion",,treatment-related adverse event incidence,0%
CC(C)n1c(C2CCNCC2)nc2c([N+](=O)[O-])c(Br)c(Br)cc21,,refers to: Asthenia,AML patients,"dose not given, all doses",,related grade ≥3 adverse events,3%
N.N.[Cl][Pt][Cl],,,"nude mice, serum","dose not given, 10 days",,uric acid,7.3 ± 0.4 mg/dL
